Measurements gathered from unrelated publications.
Each line is one published result; not all experiments were run side by side.

For `CS(=O)(=O)n1cc2c(n1)CN([C@H]1CO[C@H](c3cc(F)ccc3F)[C@@H](N)C1)C2`, the AUC(0-inf) was 6.27 µM·h (male human, plasma; oral, 5 mg, single dose, fasted).
For `CC#CC(=O)N1CCC[C@H]1c1nc(-c2ccc(C(=O)Nc3ccccn3)cc2)c2c(N)nccn12`, the AUC(0-inf) was 1110 ng·h/mL (human, plasma; oral, 100 mg, single dose, fasted).
The AUC(0-inf) of `C[C@H]1CO[C@@H]2Cn3cc(C(=O)NCc4ccc(F)cc4F)c(=O)c(O)c3C(=O)N12` is reported as 148000 ng·h/mL (human, plasma; oral, 30 mg, single dose, fasted, healthy volunteers).
The AUC(0-inf) of `CCOc1ccc(Cc2cc([C@@H]3S[C@H](CO)[C@@H](O)[C@H](O)[C@H]3O)c(OC)cc2C)cc1` is reported as 5140 ng·h/mL (human, plasma; oral, 15 mg, single dose, fasted, healthy volunteers).
For `Nc1ccc(-c2nc([C@H]3CCc4cc(-c5cc(Cl)ccc5-n5cnnn5)cc(=O)n43)c(F)[nH]2)c(F)n1`, the AUC(0-inf) was 61600 ng·h/mL (human, plasma; oral, 300 mg, single dose, fasted).
`CC#CC(=O)N[C@H]1CCCN(c2c(F)cc(C(N)=O)c3[nH]c(C)c(C)c23)C1` gave an AUC(0-inf) of 2.4 ng·h/mL (human, plasma; oral, 0.3 mg, single dose).
For `CCCc1nn(C)c2c(=O)[nH]c(-c3cc(S(=O)(=O)N4CCN(C)CC4)ccc3OCC)nc12`, the AUC(0-inf) was 601 ng·h/mL (male human, plasma; oral, 50 mg, single dose).
`C[C@@H]1CCC[C@H](n2cnc(-c3cc(Cl)ccc3-n3cc(Cl)nn3)cc2=O)c2cc(ccn2)-c2c(cnn2C(F)F)NC1=O` has an AUC(0-inf) of 19100 ng·h/mL (human, plasma; oral, 200 mg, single dose, fed, healthy volunteers).
`CC(=O)O[C@@]12CO[C@@H]1C[C@H](O)[C@@]1(C)C(=O)[C@H](O)C3=C(C)[C@@H](OC(=O)[C@H](O)[C@@H](NC(=O)OC(C)(C)C)c4ccccc4)C[C@@](O)([C@@H](OC(=O)c4ccccc4)[C@H]21)C3(C)C` gave an AUC(0-inf) of 1530 ng·h/mL (human, plasma; intravenous, 75 mg/m², patients).
`CNC(=O)c1ccccc1Sc1ccc2c(/C=C/c3ccccn3)n[nH]c2c1` has an AUC(0-inf) of 142 ng·h/mL (human, plasma; oral, 5 mg, single dose, fed).
For `O=C(CCCCCCC(=O)Nc1ccccc1)NO`, the AUC(0-inf) was 2.48 µM·h (human, serum; oral, 300 mg).
`CCOc1cc([C@@H](CS(C)(=O)=O)N2C(=O)c3cccc(NC(C)=O)c3C2=O)ccc1OC` gave an AUC(0-inf) of 2180 ng·h/mL (male human, plasma; oral, 20 mg, single dose, healthy volunteers).
For `O=C(/C=C/c1cccc(S(=O)(=O)Nc2ccccc2)c1)NO`, the AUC(0-inf) was 81.7 µM·h (human, plasma; intravenous, 1000 mg/m², patients).
The AUC(0-inf) of `O=C(c1nc2n(n1)[C@H](c1ccccc1)C[C@@H]2F)C1CC1` is reported as 13200 ng·h/mL (human, plasma; oral, 75 mg, single dose, fasted, healthy volunteers).
The AUC(0-inf) of `COc1cccc(-c2ccc(NC(=O)C3=C(C(=O)O)CCC3)c(F)c2)c1` is reported as 79000 ng·h/mL (male human, plasma; oral, 20 mg, single dose, fasted, healthy volunteers).
With `O=C(CCCCCCC(=O)Nc1ccccc1)NO` the AUC(0-inf) was 1050 ng·h/mL (human, plasma; oral, 400 mg, single dose).
For `CC(C)(Sc1ccncc1-c1ccc(C#N)c2ccccc12)C(=O)O`, the AUC(0-inf) was 42.3 ng·h/mL (male human, plasma; oral, 5 mg, single dose, fasted).

A few entries again:
`CCOc1cc([C@@H](CS(C)(=O)=O)N2C(=O)c3cccc(NC(C)=O)c3C2=O)ccc1OC` gave an AUC(0-inf) of 2180 ng·h/mL (male human, plasma; oral, 20 mg, single dose, healthy volunteers).
